# Experimental data from different studies.
# Numbered parts are unrelated; each lists some results of a single study.
# Sequence of UniProt Q9BX84 (whole entry, looked up): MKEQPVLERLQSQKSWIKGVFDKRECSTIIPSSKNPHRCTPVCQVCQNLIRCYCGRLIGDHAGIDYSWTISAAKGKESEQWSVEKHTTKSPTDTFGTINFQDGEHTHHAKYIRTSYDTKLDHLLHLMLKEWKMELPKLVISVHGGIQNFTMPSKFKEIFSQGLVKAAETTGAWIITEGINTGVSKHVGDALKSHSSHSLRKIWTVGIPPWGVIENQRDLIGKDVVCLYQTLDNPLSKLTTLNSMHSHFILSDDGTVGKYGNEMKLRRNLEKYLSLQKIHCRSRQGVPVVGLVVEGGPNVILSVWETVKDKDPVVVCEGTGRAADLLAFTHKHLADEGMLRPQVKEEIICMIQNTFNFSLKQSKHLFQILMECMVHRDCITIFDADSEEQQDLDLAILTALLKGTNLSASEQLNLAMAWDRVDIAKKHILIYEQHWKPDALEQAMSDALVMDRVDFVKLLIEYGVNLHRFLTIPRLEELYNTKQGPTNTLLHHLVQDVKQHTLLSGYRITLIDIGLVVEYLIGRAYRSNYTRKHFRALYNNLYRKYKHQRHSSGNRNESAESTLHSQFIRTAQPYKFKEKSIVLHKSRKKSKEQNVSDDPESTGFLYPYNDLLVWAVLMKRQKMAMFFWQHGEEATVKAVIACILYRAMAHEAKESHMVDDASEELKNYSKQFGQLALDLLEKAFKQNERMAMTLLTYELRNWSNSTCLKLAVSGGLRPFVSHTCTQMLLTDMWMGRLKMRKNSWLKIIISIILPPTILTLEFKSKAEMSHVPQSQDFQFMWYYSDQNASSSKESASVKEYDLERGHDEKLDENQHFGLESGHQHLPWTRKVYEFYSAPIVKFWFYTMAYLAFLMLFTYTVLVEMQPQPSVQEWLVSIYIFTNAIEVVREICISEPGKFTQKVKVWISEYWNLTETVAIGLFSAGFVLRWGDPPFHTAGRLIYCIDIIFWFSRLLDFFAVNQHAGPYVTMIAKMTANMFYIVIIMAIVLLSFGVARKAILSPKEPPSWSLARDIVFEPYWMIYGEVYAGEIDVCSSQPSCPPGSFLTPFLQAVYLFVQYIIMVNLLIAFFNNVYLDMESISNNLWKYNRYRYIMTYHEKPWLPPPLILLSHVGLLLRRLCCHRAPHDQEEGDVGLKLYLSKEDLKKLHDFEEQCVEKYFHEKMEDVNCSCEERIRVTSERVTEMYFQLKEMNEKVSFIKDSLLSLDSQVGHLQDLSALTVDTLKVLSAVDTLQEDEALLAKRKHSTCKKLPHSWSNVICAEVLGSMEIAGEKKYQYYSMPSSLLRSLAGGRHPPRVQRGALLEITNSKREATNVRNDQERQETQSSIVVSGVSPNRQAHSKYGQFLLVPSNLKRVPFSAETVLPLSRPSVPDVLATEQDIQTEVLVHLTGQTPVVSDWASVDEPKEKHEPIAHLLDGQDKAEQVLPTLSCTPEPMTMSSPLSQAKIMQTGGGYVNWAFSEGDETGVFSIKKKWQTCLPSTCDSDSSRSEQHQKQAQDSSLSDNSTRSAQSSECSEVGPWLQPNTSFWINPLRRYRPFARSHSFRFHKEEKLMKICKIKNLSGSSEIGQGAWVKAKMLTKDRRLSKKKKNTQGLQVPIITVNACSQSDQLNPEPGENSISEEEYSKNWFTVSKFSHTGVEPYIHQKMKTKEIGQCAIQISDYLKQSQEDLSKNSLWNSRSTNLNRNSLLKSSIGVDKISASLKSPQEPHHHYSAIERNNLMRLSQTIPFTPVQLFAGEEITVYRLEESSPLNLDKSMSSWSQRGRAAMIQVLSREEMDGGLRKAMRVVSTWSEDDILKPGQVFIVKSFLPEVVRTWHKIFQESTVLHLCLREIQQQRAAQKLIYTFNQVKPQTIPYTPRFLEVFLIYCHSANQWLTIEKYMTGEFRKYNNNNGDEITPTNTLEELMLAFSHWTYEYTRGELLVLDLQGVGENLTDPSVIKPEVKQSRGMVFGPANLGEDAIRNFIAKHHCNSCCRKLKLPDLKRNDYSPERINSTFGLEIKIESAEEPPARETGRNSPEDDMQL
# Sequence of UniProt P00519 (whole entry, unmodified, looked up): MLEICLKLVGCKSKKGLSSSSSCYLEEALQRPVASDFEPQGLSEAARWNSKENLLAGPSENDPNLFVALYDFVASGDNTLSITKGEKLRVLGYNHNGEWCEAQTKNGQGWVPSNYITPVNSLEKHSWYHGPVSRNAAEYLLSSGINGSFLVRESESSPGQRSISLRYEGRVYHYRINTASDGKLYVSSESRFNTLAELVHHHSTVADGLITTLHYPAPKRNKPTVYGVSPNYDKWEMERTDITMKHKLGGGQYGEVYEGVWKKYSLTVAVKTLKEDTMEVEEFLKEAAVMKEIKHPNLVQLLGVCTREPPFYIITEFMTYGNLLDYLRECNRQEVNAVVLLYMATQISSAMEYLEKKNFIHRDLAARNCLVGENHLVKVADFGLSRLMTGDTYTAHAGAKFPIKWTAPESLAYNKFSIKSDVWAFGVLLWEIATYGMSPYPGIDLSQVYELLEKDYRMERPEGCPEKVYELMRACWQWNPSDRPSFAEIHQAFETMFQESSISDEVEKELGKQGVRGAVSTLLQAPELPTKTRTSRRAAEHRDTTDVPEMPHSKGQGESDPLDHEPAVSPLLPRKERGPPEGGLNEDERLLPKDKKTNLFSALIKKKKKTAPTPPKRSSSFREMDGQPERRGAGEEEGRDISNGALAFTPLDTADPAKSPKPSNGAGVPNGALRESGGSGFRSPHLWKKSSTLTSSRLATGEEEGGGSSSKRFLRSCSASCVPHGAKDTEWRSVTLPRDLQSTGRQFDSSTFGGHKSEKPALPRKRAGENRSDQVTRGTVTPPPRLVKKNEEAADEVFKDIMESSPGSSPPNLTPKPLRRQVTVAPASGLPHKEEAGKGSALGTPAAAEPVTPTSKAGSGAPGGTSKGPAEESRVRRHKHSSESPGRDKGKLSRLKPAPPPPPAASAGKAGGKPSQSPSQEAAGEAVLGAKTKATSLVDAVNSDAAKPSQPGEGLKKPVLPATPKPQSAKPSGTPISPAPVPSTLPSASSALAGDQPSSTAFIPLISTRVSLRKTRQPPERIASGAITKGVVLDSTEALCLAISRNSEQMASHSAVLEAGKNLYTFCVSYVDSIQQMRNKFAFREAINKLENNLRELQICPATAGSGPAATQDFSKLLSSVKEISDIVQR
# Sequence of UniProt P78362 (whole entry, looked up): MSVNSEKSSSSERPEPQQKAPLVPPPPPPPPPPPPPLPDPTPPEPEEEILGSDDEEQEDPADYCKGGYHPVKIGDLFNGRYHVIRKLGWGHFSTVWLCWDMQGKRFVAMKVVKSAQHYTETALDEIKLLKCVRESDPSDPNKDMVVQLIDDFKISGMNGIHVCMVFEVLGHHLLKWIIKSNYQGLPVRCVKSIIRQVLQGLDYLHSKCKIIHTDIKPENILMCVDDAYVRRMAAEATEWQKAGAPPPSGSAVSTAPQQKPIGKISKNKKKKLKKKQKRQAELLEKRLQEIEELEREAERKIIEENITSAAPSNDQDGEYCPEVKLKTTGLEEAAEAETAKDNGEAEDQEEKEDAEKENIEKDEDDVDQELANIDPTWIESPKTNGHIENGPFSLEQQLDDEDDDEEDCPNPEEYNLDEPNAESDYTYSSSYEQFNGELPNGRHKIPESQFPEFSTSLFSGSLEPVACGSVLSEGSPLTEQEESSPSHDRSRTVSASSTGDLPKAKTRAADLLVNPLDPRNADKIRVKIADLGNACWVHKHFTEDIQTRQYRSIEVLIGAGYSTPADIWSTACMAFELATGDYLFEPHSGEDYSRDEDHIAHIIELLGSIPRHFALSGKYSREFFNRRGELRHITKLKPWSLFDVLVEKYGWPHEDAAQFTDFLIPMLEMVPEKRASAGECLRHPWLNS
# Sequence of UniProt P37023 (whole entry, looked up): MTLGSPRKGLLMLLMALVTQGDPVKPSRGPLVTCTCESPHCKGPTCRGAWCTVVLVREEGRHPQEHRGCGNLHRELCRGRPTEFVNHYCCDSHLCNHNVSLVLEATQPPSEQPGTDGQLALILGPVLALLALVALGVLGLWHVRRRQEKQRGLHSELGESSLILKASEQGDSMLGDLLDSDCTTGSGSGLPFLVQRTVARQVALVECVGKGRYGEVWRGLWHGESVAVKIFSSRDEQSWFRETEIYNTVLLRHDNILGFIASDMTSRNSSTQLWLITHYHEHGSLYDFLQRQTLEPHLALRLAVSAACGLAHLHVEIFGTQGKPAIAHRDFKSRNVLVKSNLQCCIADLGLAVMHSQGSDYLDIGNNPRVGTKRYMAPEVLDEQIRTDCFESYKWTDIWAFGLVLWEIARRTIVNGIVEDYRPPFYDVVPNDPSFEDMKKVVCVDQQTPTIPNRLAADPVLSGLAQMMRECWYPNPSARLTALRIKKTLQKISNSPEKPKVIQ
# Sequence of UniProt Q9UEE5 (whole entry, looked up): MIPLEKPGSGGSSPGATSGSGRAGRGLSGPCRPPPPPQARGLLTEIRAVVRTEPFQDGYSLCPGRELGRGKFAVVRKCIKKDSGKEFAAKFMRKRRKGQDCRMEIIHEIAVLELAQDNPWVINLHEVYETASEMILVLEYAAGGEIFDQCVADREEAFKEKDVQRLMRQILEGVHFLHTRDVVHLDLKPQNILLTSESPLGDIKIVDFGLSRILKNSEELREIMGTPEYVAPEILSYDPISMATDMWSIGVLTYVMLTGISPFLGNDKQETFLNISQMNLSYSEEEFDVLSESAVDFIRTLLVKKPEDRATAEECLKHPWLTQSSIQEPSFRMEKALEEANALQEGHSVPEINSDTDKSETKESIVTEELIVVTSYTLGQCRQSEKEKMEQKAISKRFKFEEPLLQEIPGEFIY

# Series 1 — technique: protein-binding microarray; molecule type: double-stranded DNA, one strand shown; matrix: in vitro; concentration: 2540 nM top; notes: 60-bp whole probe; added: salmon DNA 0.4 mg/ml; relative to: random background probes; reading: higher = stronger binding; all sequences stand within: GCCTAGCAC … GTCTTGATTCGCTTGACGCTGCTG
# Target: Interferon regulatory factor 3, full length, phosphomimetic (IRF3, Homo sapiens, UniProt Q14653, residues 1-427, S386D/S396D/S398D/S402D/T404D/S405D)
# Construct (chain): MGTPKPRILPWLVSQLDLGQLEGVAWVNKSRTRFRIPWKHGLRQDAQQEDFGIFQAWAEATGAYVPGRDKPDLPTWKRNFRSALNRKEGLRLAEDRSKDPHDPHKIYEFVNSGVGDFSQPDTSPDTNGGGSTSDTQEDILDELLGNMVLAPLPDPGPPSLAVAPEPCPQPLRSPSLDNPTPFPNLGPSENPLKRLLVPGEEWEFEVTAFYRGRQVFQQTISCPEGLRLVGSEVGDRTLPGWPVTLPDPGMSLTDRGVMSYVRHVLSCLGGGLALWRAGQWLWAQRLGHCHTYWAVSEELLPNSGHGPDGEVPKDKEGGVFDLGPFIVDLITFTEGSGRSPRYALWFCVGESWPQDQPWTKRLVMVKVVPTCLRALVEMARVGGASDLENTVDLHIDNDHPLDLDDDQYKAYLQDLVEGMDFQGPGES
Oligonucleotide,fitted relative affinity [z-score]
TTAGATTTCGGGTATCGAGTAGTGCTA,1.14
GTCGAACTGAGTTTCGAGACGTGCTAG,1.61
TTAGGTTTCGGCATCGGTTAGTGCTAG,2.99
GGAGGTCTGGATGTGCCGCGGTGCTAG,-1.12
GACGGTTTCGGACTCGGGACGTGCTAG,6.28
TGCTTTCTCTTTCACTGCTGGTGCTAG,3.91
GACGGTCTCTTTTTCCTGACGTGCTAG,1.75
GACGATTTCAGTTCGGAGACGTGCTAG,1.73

# Series 2 — effect on: enzyme activity; mode: inhibitor; concentration: 0.5 µM; relative to: control
# Target: Serine/threonine-protein kinase ULK3 (ULK3, Homo sapiens, UniProt Q6PHR2)
# Construct (Q6PHR2 1-472): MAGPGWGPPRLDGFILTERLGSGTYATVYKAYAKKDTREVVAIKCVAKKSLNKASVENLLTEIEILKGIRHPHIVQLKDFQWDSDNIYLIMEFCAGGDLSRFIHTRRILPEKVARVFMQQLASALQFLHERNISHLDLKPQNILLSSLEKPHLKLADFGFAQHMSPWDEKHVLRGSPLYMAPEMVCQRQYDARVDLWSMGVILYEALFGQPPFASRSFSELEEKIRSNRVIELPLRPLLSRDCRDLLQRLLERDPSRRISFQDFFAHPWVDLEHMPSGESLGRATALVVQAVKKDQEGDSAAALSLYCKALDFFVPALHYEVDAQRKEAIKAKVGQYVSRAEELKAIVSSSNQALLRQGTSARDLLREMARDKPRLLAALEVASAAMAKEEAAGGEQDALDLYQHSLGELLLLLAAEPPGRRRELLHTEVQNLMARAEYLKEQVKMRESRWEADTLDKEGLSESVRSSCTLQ
Structure (SMILES),remaining activity [%]
NCCNc1ncc(C(N)=O)c(Nc2cccc(C(F)(F)F)c2)n1,83.9
Cc1ccc(Nc2nccc(N(C)c3ccc4c(C)n(C)nc4c3)n2)cc1S(N)(=O)=O,102
C#Cc1cccc(Nc2ncnc3cc(OCCOC)c(OCCOC)cc23)c1,105
CNC(=O)c1cc(Oc2ccc(NC(=O)Nc3ccc(Cl)c(C(F)(F)F)c3)cc2)ccn1,103
CO[C@H]1C[C@@H]2CC[C@@H](C)[C@@](O)(O2)C(=O)C(=O)N2CCCC[C@H]2C(=O)O[C@H]([C@H](C)C[C@@H]2CC[C@@H](O)[C@H](OC)C2)CC(=O)[C@H](C)/C=C(\C)[C@@H](O)[C@@H](OC)C(=O)[C@H](C)C[C@H](C)/C=C/C=C/C=C/1C,85.6
O=C1NC(=O)C(c2cn(CCCn3ccnc3)c3ccccc23)=C1Nc1ccccc1,84.7
O=C(O)c1ccc2c3c1cccc3c(=O)n1c3ccccc3nc21,79.8

# Series 3 — technique: DNA-protein interaction ELISA; molecule type: double-stranded DNA, one strand shown; matrix: in vitro, bacterial lysate; concentration: not given; notes: whole dsDNA probe, crude lysate protein; relative to: highest signal in screen; reading: higher = stronger binding
# Target: Probable WRKY transcription factor 11, DNA-binding domain (WRKY11, Arabidopsis thaliana, UniProt Q9SV15, residues 228-325)
# Target sequence (chain): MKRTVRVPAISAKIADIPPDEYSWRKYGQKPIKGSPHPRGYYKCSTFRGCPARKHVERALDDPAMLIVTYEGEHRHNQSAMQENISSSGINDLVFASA
Oligonucleotide,relative absorbance
AAAAAAAGTTGTACTTATTATACTTTAAAA,13 % of maximum
AAAAAATCCGTTCCCATTTGTCCGTCAAAA,15 % of maximum
AAAAAACCGGCACGATTTGGATATTCAAAA,16.1 % of maximum
AAAAAAGCTTTCAACATCTGCGTCCAAAAA,11.2 % of maximum
AAAAAACTCGTACATCTATCGCTACGAAAA,13.8 % of maximum
AAAAAATCCATGTTTAAGCTGGTCTCAAAA,17 % of maximum
AAAAAATATGGCACTCGCCGCACATCAAAA,17.9 % of maximum
AAAAAAAACAAAACCTCCTAATAGCGAAAA,9.8 % of maximum

# Series 4 — SMILES: O=c1nc(-c2ccccn2)sc2ccccc12; technique: competition with immobilised ligand; concentration: 1 µM
target,test,remaining binding [%]
"5'-AMP-activated protein kinase catalytic subunit alpha-1 (PRKAA1, Homo sapiens, UniProt Q13131)",cell-free assay,100
"Inhibitor of nuclear factor kappa-B kinase subunit beta (IKBKB, Homo sapiens, UniProt O14920)",cell-free assay,100
"Tyrosine-protein kinase ABL1, phosphorylated (ABL1, Homo sapiens, UniProt P00519, F317L)",binding,100
"Wee1-like protein kinase 2 (WEE2, Homo sapiens, UniProt P0C1S8)",binding,100
"Transient receptor potential cation channel subfamily M member 6 (TRPM6, Homo sapiens, UniProt Q9BX84)",cell-free assay,77
"Activin receptor type-1-like (ACVRL1, Homo sapiens, UniProt P37023)",binding,99
"STE20-like serine/threonine-protein kinase (SLK, Homo sapiens, UniProt Q9H2G2)",binding,85
"Dual specificity tyrosine-phosphorylation-regulated kinase 2 (DYRK2, Homo sapiens, UniProt Q92630)",binding,100
"TGF-beta receptor type-1 (TGFBR1, Homo sapiens, UniProt P36897)",cell-free assay,97
"Serine/threonine-protein kinase ULK3 (ULK3, Homo sapiens, UniProt Q6PHR2)",binding,100
"Dual serine/threonine and tyrosine protein kinase (DSTYK, Homo sapiens, UniProt Q6XUX3)",binding,88
"Protein kinase C theta type (PRKCQ, Homo sapiens, UniProt Q04759)",cell-free assay,90
"Serine/threonine-protein kinase 17A (STK17A, Homo sapiens, UniProt Q9UEE5)",binding,100
"SRSF protein kinase 2 (SRPK2, Homo sapiens, UniProt P78362)",binding,100
"Calcium/calmodulin-dependent protein kinase type IV (CAMK4, Homo sapiens, UniProt Q16566)",binding,97
"Serine/threonine-protein kinase 32A (STK32A, Homo sapiens, UniProt Q8WU08)",binding,100
"Calcium/calmodulin-dependent protein kinase type 1D (CAMK1D, Homo sapiens, UniProt Q8IU85)",cell-free assay,90
